Experimental data collected from several papers.
Lines come from different studies, so protocols differ. Values joined by “and” are separate records of one study, mostly repeats; a detail may differ. ± gives the spread as reported.
Kir3.1/Kir3.2: Kir3.1/Kir3.2 (Homo sapiens, UniProt P48051+P48549)
UniProt P48549, sequence (whole entry, looked up): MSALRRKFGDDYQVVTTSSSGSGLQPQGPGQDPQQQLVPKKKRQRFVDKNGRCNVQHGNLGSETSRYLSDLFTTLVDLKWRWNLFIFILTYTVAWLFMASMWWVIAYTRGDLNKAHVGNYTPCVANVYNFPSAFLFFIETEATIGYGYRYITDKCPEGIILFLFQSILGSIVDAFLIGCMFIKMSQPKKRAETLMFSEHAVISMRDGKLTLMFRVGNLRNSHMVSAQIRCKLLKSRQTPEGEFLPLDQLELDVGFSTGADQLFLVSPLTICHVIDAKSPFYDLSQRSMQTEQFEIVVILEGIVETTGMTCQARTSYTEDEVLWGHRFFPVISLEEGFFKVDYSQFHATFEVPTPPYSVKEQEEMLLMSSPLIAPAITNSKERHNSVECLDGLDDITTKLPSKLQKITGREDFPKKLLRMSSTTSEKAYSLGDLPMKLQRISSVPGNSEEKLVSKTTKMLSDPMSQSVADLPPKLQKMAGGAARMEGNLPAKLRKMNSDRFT
UniProt P48051, sequence (whole entry, looked up): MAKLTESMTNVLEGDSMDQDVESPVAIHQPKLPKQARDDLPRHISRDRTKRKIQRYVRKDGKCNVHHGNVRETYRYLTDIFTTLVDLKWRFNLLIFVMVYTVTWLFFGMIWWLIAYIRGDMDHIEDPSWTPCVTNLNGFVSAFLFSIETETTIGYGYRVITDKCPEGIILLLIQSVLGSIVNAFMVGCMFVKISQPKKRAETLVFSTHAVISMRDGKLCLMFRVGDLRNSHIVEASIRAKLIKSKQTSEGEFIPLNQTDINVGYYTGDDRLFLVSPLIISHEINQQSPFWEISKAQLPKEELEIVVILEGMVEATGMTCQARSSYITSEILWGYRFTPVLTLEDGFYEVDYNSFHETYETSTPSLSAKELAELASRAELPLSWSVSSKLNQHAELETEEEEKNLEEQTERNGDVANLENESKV
Grik2: Glutamate receptor ionotropic, kainate 2 (Grik2, Rattus norvegicus, UniProt P42260)
UniProt P42260, sequence (whole entry, looked up): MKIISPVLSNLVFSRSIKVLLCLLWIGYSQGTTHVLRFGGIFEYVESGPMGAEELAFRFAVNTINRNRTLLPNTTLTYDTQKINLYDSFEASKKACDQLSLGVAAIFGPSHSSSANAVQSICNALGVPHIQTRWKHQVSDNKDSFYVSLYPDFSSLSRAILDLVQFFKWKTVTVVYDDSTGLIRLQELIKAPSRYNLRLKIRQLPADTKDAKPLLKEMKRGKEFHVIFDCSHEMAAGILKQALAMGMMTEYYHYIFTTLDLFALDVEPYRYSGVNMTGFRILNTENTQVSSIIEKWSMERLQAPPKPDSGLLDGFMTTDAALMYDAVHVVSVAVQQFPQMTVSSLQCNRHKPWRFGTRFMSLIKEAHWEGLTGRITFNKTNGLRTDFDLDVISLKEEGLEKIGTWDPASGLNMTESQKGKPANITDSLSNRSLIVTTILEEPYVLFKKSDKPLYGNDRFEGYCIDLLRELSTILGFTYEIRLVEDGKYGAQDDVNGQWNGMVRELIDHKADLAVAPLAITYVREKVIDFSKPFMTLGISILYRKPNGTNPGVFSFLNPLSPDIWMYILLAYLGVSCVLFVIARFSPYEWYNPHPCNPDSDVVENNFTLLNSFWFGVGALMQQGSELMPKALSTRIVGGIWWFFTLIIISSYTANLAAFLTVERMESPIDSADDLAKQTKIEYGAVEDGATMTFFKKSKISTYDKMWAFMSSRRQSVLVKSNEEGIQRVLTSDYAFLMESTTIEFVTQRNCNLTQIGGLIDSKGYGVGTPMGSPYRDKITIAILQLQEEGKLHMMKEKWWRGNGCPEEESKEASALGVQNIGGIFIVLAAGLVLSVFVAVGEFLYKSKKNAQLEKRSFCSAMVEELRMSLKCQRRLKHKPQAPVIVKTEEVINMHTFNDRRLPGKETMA
ALPI: Intestinal-type alkaline phosphatase (ALPI, Bos taurus, UniProt P19111)
UniProt P19111, sequence (whole entry, looked up): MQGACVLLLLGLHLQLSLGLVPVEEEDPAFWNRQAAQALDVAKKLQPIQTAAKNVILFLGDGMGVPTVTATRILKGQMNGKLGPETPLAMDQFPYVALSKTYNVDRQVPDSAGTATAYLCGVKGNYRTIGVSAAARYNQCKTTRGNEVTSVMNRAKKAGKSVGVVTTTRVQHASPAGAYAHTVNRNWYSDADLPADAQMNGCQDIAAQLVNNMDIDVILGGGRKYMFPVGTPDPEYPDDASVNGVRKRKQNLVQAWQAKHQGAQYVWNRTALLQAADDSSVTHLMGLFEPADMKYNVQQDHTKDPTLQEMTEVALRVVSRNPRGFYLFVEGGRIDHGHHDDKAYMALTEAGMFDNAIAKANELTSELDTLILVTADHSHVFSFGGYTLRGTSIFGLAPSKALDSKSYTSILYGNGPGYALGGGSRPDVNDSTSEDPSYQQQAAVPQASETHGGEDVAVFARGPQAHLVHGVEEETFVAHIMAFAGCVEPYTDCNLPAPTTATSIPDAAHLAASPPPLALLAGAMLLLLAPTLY
EGLN1: Egl nine homolog 1 (EGLN1, Homo sapiens, UniProt Q9GZT9)
UniProt Q9GZT9, sequence (whole entry, looked up): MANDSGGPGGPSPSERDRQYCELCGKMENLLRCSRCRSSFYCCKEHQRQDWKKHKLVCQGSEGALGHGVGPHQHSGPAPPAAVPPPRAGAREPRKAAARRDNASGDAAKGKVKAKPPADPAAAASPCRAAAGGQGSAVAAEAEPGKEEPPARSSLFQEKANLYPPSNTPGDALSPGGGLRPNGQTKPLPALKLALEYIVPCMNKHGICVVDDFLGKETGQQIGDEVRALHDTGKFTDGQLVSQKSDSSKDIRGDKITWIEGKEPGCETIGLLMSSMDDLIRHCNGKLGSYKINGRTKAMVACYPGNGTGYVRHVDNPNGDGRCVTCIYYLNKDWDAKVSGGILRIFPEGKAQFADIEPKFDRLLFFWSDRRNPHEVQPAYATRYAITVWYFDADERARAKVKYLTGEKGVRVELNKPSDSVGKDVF
Ephx2: Bifunctional epoxide hydrolase 2 (Ephx2, Mus musculus, UniProt P34914)
UniProt P34914, sequence (whole entry, looked up): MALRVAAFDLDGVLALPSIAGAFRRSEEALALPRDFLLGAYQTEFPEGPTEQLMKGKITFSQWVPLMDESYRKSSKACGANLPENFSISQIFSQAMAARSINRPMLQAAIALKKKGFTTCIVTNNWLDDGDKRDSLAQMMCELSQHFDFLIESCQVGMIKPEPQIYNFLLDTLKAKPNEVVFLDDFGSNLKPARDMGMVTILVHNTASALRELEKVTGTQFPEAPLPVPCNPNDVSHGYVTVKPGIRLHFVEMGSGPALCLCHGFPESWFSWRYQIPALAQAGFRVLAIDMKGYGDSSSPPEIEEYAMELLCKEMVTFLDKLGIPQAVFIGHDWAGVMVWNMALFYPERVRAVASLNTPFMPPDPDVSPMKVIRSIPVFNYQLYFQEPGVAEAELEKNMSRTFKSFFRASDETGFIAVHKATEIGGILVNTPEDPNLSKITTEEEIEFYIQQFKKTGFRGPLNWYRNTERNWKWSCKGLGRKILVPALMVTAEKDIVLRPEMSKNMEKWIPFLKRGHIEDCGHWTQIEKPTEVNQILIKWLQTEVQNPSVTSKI
HDAC1: Histone deacetylase 1 (HDAC1, Homo sapiens, UniProt Q13547)
UniProt Q13547, sequence (whole entry, looked up): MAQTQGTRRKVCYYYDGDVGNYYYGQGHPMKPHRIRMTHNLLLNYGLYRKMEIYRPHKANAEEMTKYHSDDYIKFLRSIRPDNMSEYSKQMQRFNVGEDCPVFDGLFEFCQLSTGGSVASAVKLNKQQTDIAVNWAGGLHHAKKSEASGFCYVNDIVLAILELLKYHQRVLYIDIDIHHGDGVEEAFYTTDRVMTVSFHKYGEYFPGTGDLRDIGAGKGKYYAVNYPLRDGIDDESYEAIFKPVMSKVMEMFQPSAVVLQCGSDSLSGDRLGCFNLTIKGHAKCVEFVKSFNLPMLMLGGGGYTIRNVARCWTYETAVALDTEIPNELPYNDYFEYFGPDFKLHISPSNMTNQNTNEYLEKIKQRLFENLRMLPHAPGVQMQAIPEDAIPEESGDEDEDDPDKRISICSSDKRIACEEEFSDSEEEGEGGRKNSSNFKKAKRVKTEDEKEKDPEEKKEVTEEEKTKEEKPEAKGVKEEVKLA
BACE1: Beta-secretase 1 (BACE1, Homo sapiens, UniProt P56817)
UniProt P37231, sequence (whole entry, looked up): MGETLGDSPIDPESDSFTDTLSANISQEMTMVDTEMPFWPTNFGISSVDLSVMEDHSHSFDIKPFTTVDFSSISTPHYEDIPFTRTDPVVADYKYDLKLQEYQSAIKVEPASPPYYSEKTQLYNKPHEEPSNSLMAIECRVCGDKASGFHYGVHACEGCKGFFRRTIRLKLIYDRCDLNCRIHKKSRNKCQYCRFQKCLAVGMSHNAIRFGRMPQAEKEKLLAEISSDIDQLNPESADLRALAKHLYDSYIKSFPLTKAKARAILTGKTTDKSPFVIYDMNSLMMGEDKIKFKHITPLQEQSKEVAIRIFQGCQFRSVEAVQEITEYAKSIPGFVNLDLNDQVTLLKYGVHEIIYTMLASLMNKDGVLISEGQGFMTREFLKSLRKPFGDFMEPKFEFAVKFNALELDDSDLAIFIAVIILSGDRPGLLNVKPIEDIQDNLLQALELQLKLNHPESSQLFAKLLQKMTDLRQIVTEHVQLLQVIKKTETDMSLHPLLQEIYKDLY
UniProt P56817, sequence (whole entry, looked up): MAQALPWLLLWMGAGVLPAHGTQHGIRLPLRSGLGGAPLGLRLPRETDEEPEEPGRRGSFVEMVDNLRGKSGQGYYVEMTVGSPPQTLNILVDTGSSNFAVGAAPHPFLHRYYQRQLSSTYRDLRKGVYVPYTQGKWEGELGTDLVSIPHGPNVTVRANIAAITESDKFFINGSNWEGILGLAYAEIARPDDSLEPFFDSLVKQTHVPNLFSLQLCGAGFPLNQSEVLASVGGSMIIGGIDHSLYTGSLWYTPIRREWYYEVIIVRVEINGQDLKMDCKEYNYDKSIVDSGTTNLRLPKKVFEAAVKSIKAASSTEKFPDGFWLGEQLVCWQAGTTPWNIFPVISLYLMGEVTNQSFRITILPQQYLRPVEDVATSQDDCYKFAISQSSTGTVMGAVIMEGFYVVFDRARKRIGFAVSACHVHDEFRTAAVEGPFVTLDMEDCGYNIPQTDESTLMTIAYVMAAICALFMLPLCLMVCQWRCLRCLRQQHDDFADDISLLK

COc1ccccc1OCC(O)Cn1c(=N)n(Cc2ccccc2)c2ccccc21 (stereo not drawn)  IC50 (Kir3.1/Kir3.2; ion flux): 5.13 µM
COC(=O)C1=C(C)NC(C)=C(C(=O)OCCN(C)Cc2ccccc2)C1c1cccc([N+](=O)[O-])c1 (stereo not drawn)  IC50 (ABCC1 (Homo sapiens, UniProt P33527); substrate efflux, inhibitor, flow cytometry; ABCC1-overexpressing SupT1-Vin cells; with: BODIPY-FL-histamine 500 nM): 1.2 ± 0.9 µM
CC(=O)NCC(=O)N1[C@@H]2CC[C@H]1c1ccc(Nc3ncc(C(F)(F)F)c(NC4CCC4)n3)cc12  IC50 (STK24 (Homo sapiens, UniProt Q9Y6E0); enzyme activity, inhibitor, radiometric): 0.023 µM
CCN1/C(=C/c2ccc3ccccc3[n+]2CC)C=Cc2ccccc21  IC50 (Equilibrative nucleoside transporter 4 (Slc29a4, Mus musculus, UniProt Q8R139); pH 7.4): 0.591 ± 0.054 µM
C=C(C)CCOP(=O)(O)OP(=O)(O)OP(=O)(O)OC[C@H]1O[C@@H](n2cnc3c(N)ncnc32)[C@H](O)[C@@H]1O  IC50 (PLK1 (Homo sapiens, UniProt P53350); enzyme activity, inhibitor, HotSpot kinase; with: ATP 1 µM): 2.6 µM
O=c1cc(N2CCOCC2)oc2c(OCc3cccnc3)cccc12  IC50 (PIK3CA (Homo sapiens, UniProt P42336, Q859D); enzyme activity, inhibitor): 5.2 µM
O=C(OC(C(F)(F)F)C(F)(F)F)N1CC(OC(c2ccc(F)cc2)c2ccc(F)cc2)C1  IC50 (ABHD6 (Homo sapiens, UniProt Q9BV23); enzyme activity, inhibitor, fluorescence): 0.0601 µM
N=c1n(Cc2ccc(Cl)cc2)c2ccccc2n1CC(O)COc1ccccc1 (stereo not drawn)  IC50 (Kir3.1/Kir3.2; ion flux): 4.8 µM
COc1cccc(-n2c(/C=C/c3ccccc3[N+](=O)[O-])nc3ccccc3c2=O)c1  IC50 (Grik2; ion current, inhibitor, two-electrode voltage clamp; Xenopus oocytes; concanavalin A pretreatment, with: 100 µM glutamate): > 300 µM
O=C(Nc1cc(C(=O)Nc2ccc(S(=O)(=O)O)cc2S(=O)(=O)O)cc(C(=O)Nc2ccc(S(=O)(=O)O)cc2S(=O)(=O)O)c1)Nc1cc(C(=O)Nc2ccc(S(=O)(=O)O)cc2S(=O)(=O)O)cc(C(=O)Nc2ccc(S(=O)(=O)O)cc2S(=O)(=O)O)c1  IC50 (Methyl-CpG-binding domain protein 2, MBD domain (MBD2, Homo sapiens, UniProt Q9UBB5); methylated DNA binding, inhibitor, TR-FRET; with: methylated FAM oligonucleotide): 0.29 µM
CCCCCCCCN1CC2=C(C1=O)C(c1ccccc1O)NC(=O)N2 (stereo not drawn)  IC50 (ALPI; enzyme activity, inhibitor, absorbance; pH 9.5): 8.72 µM
Oc1cccnc1O  IC50 (EGLN1; ODDD peptide hydroxylation, inhibitor, MALDI-TOF MS; pH 7.00, 37.0 °C, with: 2-oxoglutarate 10 µM): 5 µM
CNC(=O)CC[C@@H](C)[C@H]1CC[C@H]2[C@@H]3CC[C@@H]4C[C@H](OC(=O)CCCCCC(=O)O)CC[C@]4(C)[C@H]3CC[C@]12C  IC50 (human 20S proteasome; chymotrypsin-like activity, inhibitor; with: PA28): > 10 µM
CC(C)C[C@H](NC(=O)[C@H](CC(C)C)NC(=O)[C@@H](Cc1c[nH]c2ccccc12)NC(=O)[C@H](Cc1ccccc1)NC(=O)[C@@H](Cc1c[nH]c2ccccc12)NC(=O)[C@H](CCC(N)=O)NC(=O)[C@H](CCC(N)=O)NC(=O)[C@@H]1CCCN1C(=O)[C@H](CCCCN)NC(=O)[C@@H]1CCCN1C(=O)[C@H](N)CCCN=C(N)N)C(N)=O  IC50 (NMBR (Homo sapiens, UniProt P28336); inositol phosphate generation, antagonist; Balb 3T3 expressing NMBR; with: neuromedin B 1 nM): 1.18 ± 0.098 µM
Cn1c(=O)n(-c2ccc(C(C)(C)C#N)cc2)c2c3cc(-c4cnc5ccccc5c4)ccc3ncc21  IC50 (Serine/threonine-protein kinase ATR (Atr, Mus musculus, UniProt Q9JKK8); inhibitor, high-content microscopy, measured: nuclear γH2AX; TopBP1-ER cells; with: 4-hydroxytamoxifen): 0.1 µM
O=C(N1CCCCC1c1ccccc1)n1cc(-c2ccc(-c3cccc(CO)c3)cc2)nn1 (stereo not drawn)  IC50 (Abhd6 (Mus musculus, UniProt Q8R2Y0); enzyme activity, inhibitor): ~0.001 µM
O=C(O)c1cccc(-n2c(/C=C/c3cccc([N+](=O)[O-])c3)nc3ccccc3c2=O)c1  IC50 (Grik2; ion current, inhibitor, two-electrode voltage clamp; Xenopus oocytes; concanavalin A pretreatment, with: 100 µM glutamate): > 300 µM
O=C(CCCCCCNC(=O)[C@H]1CCCN(C(=O)c2ccc(NC(=O)Nc3ccc(F)c(C(F)(F)F)c3)c(F)c2)C1)NO  IC50 (Ephx2; enzyme activity, inhibitor, fluorescence): 0.0089 µM
sodium copper chlorophyllin  IC50 (MDH2 (Sus scrofa, UniProt P00346); enzyme activity, inhibitor; counter-screen): > 63 µM
COc1cc(/C=C/C(C)=N/O)ccc1OCC(=O)Nc1ccc(Cl)cc1  IC50 (PPARG (Homo sapiens, UniProt P37231); ligand displacement, TR-FRET): 8.6 µM and 8.61 µM
c1ccccc1  IC50 (Neuronal acetylcholine receptor; alpha4/beta2 (Homo sapiens, UniProt P17787+P43681); ion current, inhibitor, two-electrode voltage clamp; Xenopus oocytes; with: ACh 1 mM): 0.0024 atm
CC12CC3CC(C)(C1)CC(Nc1c(Nc4ccc(C(=O)N5CCC[C@H](C(=O)NCCCC(=O)NO)C5)cc4F)c(=O)c1=O)(C3)C2  IC50 (Ephx2; enzyme activity, inhibitor, fluorescence): 21.3 µM
COc1cccc(CNC(=O)C#Cc2cn(Cc3ccc(C(=O)O)cc3)c(=O)[nH]c2=O)c1  IC50 (Collagenase 3 (MMP13, Homo sapiens, UniProt P45452); enzyme activity, inhibitor): 0.0109 µM
Cc1nc2cc(F)ccc2n1Cc1ccc(C(=O)NO)cc1  IC50 (HDAC1; enzyme activity, inhibitor): 5.87 µM
O=C(O)CC(O)(CC(=O)O)C(=O)O  IC50 (mushroom tyrosinase; enzyme activity, inhibitor; 2 min, with: L-DOPA): 9380 ± 60 µg/mL
Cc1cc2ccc(OC(=O)c3ccc(N=C(N)N)cc3)cc2oc1=O  IC50 (BACE1; inhibitor, FRET; pH 4.5): 1.5 ± 0.2 µM
Cc1cc(C(=O)N[C@@H](CC(=O)NC(C)(C)C)C(=O)N[C@@H](C)CC(=O)NCc2cccc3ccccc23)no1  IC50 (Proteasome component C5/PSMB8 (Homo sapiens, UniProt P20618+P28062); chymotrypsin-like activity, inhibitor; with: ac-ANW-AMC): 0.19 ± 0.018 µM
micropeptin 982  IC50 (Neutrophil elastase (ELANE, Homo sapiens, UniProt P08246); inhibitor): 1.4 ± 0.15 µM
O=C(CCCCCCNC(=O)[C@H]1CCCN(C(=O)c2ccc(NC(=O)Nc3ccc(OC(F)(F)F)c(Cl)c3)c(F)c2)C1)NO  IC50 (Ephx2; enzyme activity, inhibitor, fluorescence): 0.0009 µM
Oc1cccnc1O  IC50 (HDAC1; enzyme activity, inhibitor, SAMDI mass spectrometry): > 10 µM
CC(=O)CC(c1ccccc1)c1c(O)c2ccccc2oc1=O (stereo not drawn)  IC50 (Vitamin K epoxide reductase complex subunit 1-like protein 1 (Homo sapiens, UniProt Q8N0U8); enzyme activity, inhibitor, fluorometric; DDM detergent, with: GSH reductant, 250 nM enzyme): > 0.25 µM
CC(C)C[C@H](NC(=O)N1CCOCC1)C(=O)N[C@H](/C=C/S(=O)(=O)c1ccccc1)CCc1ccccc1  IC50 (Cathepsin B (CTSB, Bos taurus, UniProt P07688); enzyme activity, inhibitor, fluorescence; pH 5.5, with preincubation): 1.12 µM
NS(=O)(=O)c1cc2c(cc1Cl)NC(Cc1ccccc1)NS2(=O)=O (stereo not drawn)  IC50 (BACE1; enzyme activity, inhibitor, FRET; pH 4.5): 12.1 µM
O=C(O)CCCC(=O)NNC(=O)c1ccc2ccccc2n1  IC50 (EGLN1; inhibitor, AlphaScreen; bimodal curve, rough estimate, with: 2 µM 2-oxoglutarate): > 300 µM
Oc1cccn(Cc2ccc(-c3ccccc3)cc2)c1=S  IC50 (HDAC1; enzyme activity, inhibitor, SAMDI mass spectrometry): > 10 µM
O=S(=O)(Nc1ccccc1Cl)C1CC2OC1C(c1ccc(O)cc1)=C2c1ccc(O)cc1 (stereo not drawn)  IC50 (ESR2 (Homo sapiens, UniProt Q92731); reporter gene, antagonist, luciferase): 0.1 µM
O=C1NC2=C(C(=O)N(c3nc4ccccc4[nH]3)C2)C(c2ccc(O)cc2)N1 (stereo not drawn)  IC50 (ALPI; enzyme activity, inhibitor, absorbance; pH 9.5): 11.3 µM
Nc1nc(=O)c2c([nH]1)NCC(CNc1ccc(C(=O)N[C@@H](CCC(=O)O)C(=O)O)cc1)N2C=O (mixture of isomers)  IC50 (thyX (Mycobacterium tuberculosis, UniProt P9WG57); NADPH oxidase activity, inhibitor; with: 200 µM NADPH): 29 ± 6 µM
Carbidopa  IC50 (KDM4E (Homo sapiens, UniProt B2RXH2); FDH-coupled qHTS; with: FAS 10 µM): 8 µM
O=C(Nc1cc(Cl)c(F)c(Cl)c1)c1cc(S(=O)(=O)N2CCOCC2)c(Cl)cc1Cl  IC50 (LPAR5 (Homo sapiens, UniProt Q9H1C0); Ca2+ mobilization, antagonist; B103; with: LPA at EC50): > 100 µM
COc1ccc2c(CC(=O)NCCCC[C@H](N)C(=O)N[C@@H](CCC(=O)O)C(=O)N[C@@H](Cc3ccc(CS(=O)(=O)O)cc3)C(=O)N[C@@H](CCC(=O)O)C(=O)N[C@@H](Cc3ccc(CS(=O)(=O)O)cc3)C(=O)N[C@@H](CC(C)C)C(=O)N[C@@H](CC(=O)O)C(=O)N[C@@H](Cc3ccc(CS(=O)(=O)O)cc3)C(=O)N[C@@H](CC(=O)O)C(=O)N[C@@H](Cc3ccccc3)C(=O)N[C@@H](CC(C)C)C(=O)N3CCC[C@H]3C(=O)N[C@@H](CCC(=O)O)C(=O)N[C@H](C(=O)N[C@@H](CCC(=O)O)C(=O)N3CCC[C@H]3C(=O)N[C@@H](CC(C)C)C(=O)O)[C@@H](C)O[C@H]3O[C@H](CO[C@@H]4O[C@H](CO)[C@@H](O[C@@H]5O[C@H](CO)[C@H](O)[C@H](O[C@]6(C(=O)O)C[C@H](O)[C@@H](NC(C)=O)[C@H]([C@H](O)[C@H](O)CO)O6)[C@H]5O)[C@H](O[C@@H]5O[C@@H](C)[C@@H](O)[C@@H](O)[C@@H]5O)[C@H]4NC(C)=O)[C@H](O)[C@H](O[C@@H]4O[C@H](CO)[C@H](O)[C@H](O)[C@H]4O)[C@H]3NC(C)=O)cc(=O)oc2c1  IC50 (L-selectin (Mus musculus, UniProt P18337); PSGL-1 binding, inhibitor, flow cytometry, Fc chimera; mouse neutrophils): ~30 µM
COc1cccc(-n2c(/C=C/c3cccc([N+](=O)[O-])c3)nc3ccccc3c2=O)c1  IC50 (Grik2; ion current, inhibitor, two-electrode voltage clamp; Xenopus oocytes; concanavalin A pretreatment, with: 100 µM glutamate): > 300 µM
S=c1[nH]nc(-c2ccc(-c3cccc(Cl)c3)o2)s1  IC50 (Runt-related transcription factor 1, Runt domain; with CBFβ (Homo sapiens, UniProt Q01196); Runt domain-CBFβ binding, inhibitor, FRET; with: Cerulean-Runt and Venus-CBFβ 100 nM): 2 ± 1.1 µM
Oc1cc(O)c2c(c1)OC(O)(c1ccc(O)c(O)c1)C(O)C2 (stereo not drawn)  IC50 (mRNA triphosphatase Cet1 (Trypanosoma brucei brucei, UniProt Q582T2); enzyme activity, Transcreener ADP fluorescence polarization; 3 h, with: 50 µM ATP): 0.91 µM
C[C@@H]1O[C@](O)(CO)[C@@H](O)[C@H](O)[C@H]1O  IC50 (3-dehydroquinate synthase, chloroplastic (DHQS, Arabidopsis thaliana, UniProt Q8VYV7); enzyme activity, inhibitor, malachite green phosphate release; 29 °C): 465 µM
CCC(CC)CSc1nc2c([nH]1)c(=S)n(C)c(=O)n2C  IC50 (PGR (Homo sapiens, UniProt P06401); reporter gene, antagonist; T47D/A1-2; estimated from 10 µM, with: progesterone): < 10 µM
Cc1c(O)c(=O)ccn1C  IC50 (EGLN1; ODDD peptide hydroxylation, inhibitor, MALDI-TOF MS; pH 7.00, 37.0 °C, with: 2-oxoglutarate 10 µM): 40 µM
O=C1O[C@H]([C@@H](O)CO)C(O)=C1OP(=O)(O)O  IC50 (mushroom tyrosinase; inhibitor; with: L-tyrosine): 246 ± 34.7 µM
CN(C)CC(c1ccc(O)cc1)C1(O)CCCCC1 (stereo not drawn)  IC50 (Slc6a4 (Mus musculus, UniProt Q60857); [3H]5-HT uptake; brain synaptosomes; 10 min, pH 7.4, 37 °C, wild type, with: [3H]5-HT 100 nM): 0.16 µM
COc1cccc(OCC(O)Cn2c(=N)n(Cc3ccccc3)c3ccccc32)c1 (stereo not drawn)  IC50 (Kir3.1/Kir3.2; ion flux): 1.43 µM
CSc1nnc2[nH]nc(C)c2n1  IC50 (deoD (Escherichia coli, UniProt P0ABP8); phosphorolysis, inhibitor; pH 7.0, 25 °C, with: 7-methylguanosine 131 µM, phosphate 50 mM): ~30 µM
